Assay results of several laboratories.
Each line is one published result; not all experiments were run side by side. ± marks the error that the study gave.
Target: Proteinase K (PROK, Engyodontium album, UniProt P06873)

Under “ln rate constant ratio”, `CC[C@H](C)[C@H](NC(=O)[C@H](CCC(=O)NCCOCCOCCOCCOC)NC(=O)[C@H](CC(N)=O)NC(=O)[C@H](Cc1ccccc1)NC(=O)[C@H](Cc1ccc(O)cc1)NC(=O)[C@H](Cc1ccc(O)cc1)NC(=O)[C@@H](NC(=O)[C@H](CCCNC(=N)N)NC(=O)CNC(=O)[C@H](CO)NC(=O)[C@H](CO)NC(=O)[C@H](CCCNC(=N)N)NC(=O)[C@H](CO)NC(=O)[C@H](CCSC)NC(=O)[C@H](CCCNC(=N)N)NC(=O)[C@H](CCCCN)NC(=O)[C@H](CCC(=O)O)NC(=O)[C@H](Cc1c[nH]c2ccccc12)NC(=O)CNC(=O)[C@@H]1CCCN1C(=O)[C@@H]1CCCN1C(=O)[C@H](CC(C)C)NC(=O)[C@@H](N)CCCCN)C(C)C)C(=O)N[C@H](C(=O)N[C@@H](CC(N)=O)C(=O)N[C@@H](C)C(=O)N[C@@H](CO)C(=O)N[C@@H](CCC(N)=O)C(=O)N[C@@H](Cc1ccccc1)C(=O)N[C@@H](CCC(=O)O)C(=O)N[C@@H](CCCNC(=N)N)C(=O)N1CCC[C@H]1C(=O)N[C@@H](CO)C(=O)NCC(=O)O)[C@@H](C)O` is recorded as 0.3 ± 0.3 (proteolysis, substrate, HPLC; room temperature; reference: PEGylated over non-PEGylated variant, negative = more stable).
Under proteolytic stability, `CC(C)C[C@H](NC(=O)[C@H](CCCCN)NC(=O)[C@H](CCCNC(=N)N)NC(=O)[C@@H](CC(C)C)NC(=O)[C@H](Cc1c[nH]c2ccccc12)NC(=O)[C@H](CC(=O)O)NC(=O)[C@H](CCCCN)NC(=O)[C@@H](CC(C)C)NC(=O)[C@H](CCCNC(=N)N)NC(=O)[C@H](CCC(N)=O)NC(=O)[C@@H](NC(=O)[C@@H](CC(C)C)NC(=O)[C@H](CCCNC(=N)N)NC(=O)[C@H](CCCCN)NC(=O)[C@H](Cc1ccc(C(C)(C)C)cc1)NC(=O)CN)C(C)C)C(=O)N[C@H](C(N)=O)C(C)C` is recorded as “stable” (substrate, SDS-PAGE; 24 h, pH 7.4, 37 °C).
For `CC(=O)N[C@H]1[C@@H](O[C@H](C)[C@H](NC(=O)[C@H](CC(=O)O)NC(=O)[C@@H]2CCCN2C(=O)[C@H](C)NC(=O)C[C@H](CO)NC(=O)[C@@H](NC(=O)[C@@H](NC(=O)CCNC(=O)[C@H](Cc2c[nH]cn2)NC(=O)[C@H](C)NC(=O)[C@@H](N)CS)C(C)C)[C@@H](C)O)C(=O)N[C@@H](CCCNC(=N)N)C(=O)N2CCC[C@H]2C(=O)N[C@@H](C)C(=O)N2CCC[C@H]2C(=O)NCCC(=O)N[C@@H](CO)C(=O)N[C@H](C(=O)N[C@@H](C)C(=O)N2CCC[C@H]2CC(=O)N2CCC[C@H]2C(N)=O)[C@@H](C)O)O[C@H](CO)[C@H](O)[C@@H]1O`, the half-life was 2.07 h (UPLC; DPBS; 200 µM, added: proteinase K 5 µg/mL).
`CC[C@H](C)[C@H](NC(=O)[C@H](Cc1c[nH]cn1)NC(=O)[C@H](CC(N)=O)NC(=O)[C@H](Cc1ccccc1)NC(=O)[C@H](Cc1ccc(O)cc1)NC(=O)[C@H](Cc1ccc(O)cc1)NC(=O)[C@@H](NC(=O)[C@H](CCCNC(=N)N)NC(=O)CNC(=O)[C@H](CO)NC(=O)[C@H](CO)NC(=O)[C@H](CCCNC(=N)N)NC(=O)[C@H](CCn1cc(COCCOCCOCCOC)nn1)NC(=O)[C@H](CCSC)NC(=O)[C@H](CCCNC(=N)N)NC(=O)[C@H](CCCCN)NC(=O)[C@H](CCC(=O)O)NC(=O)[C@H](Cc1c[nH]c2ccccc12)NC(=O)CNC(=O)[C@@H]1CCCN1C(=O)[C@@H]1CCCN1C(=O)[C@H](CC(C)C)NC(=O)[C@@H](N)CCCCN)C(C)C)C(=O)N[C@H](C(=O)N[C@@H](CC(N)=O)C(=O)N[C@@H](C)C(=O)N[C@@H](CO)C(=O)N[C@@H](CCC(N)=O)C(=O)N[C@@H](Cc1ccccc1)C(=O)N[C@@H](CCC(=O)O)C(=O)N[C@@H](CCCNC(=N)N)C(=O)N1CCC[C@H]1C(=O)N[C@@H](CO)C(=O)NCC(=O)O)[C@@H](C)O` — result for “ln rate constant ratio”: -0.7 ± 0.4 (proteolysis, substrate, HPLC; room temperature; reference: PEGylated over non-PEGylated variant, negative = more stable).
Under proteolytic stability, `CC(C)C[C@H](NC(=O)[C@H](CCCCN)NC(=O)[C@H](CCCNC(=N)N)NC(=O)[C@@H](CC(C)C)NC(=O)[C@H](Cc1c[nH]c2ccccc12)NC(=O)[C@H](CC(=O)O)NC(=O)[C@H](CCCCN)NC(=O)[C@@H](CC(C)C)NC(=O)[C@H](CCCNC(=N)N)NC(=O)[C@H](CCC(N)=O)NC(=O)[C@@H](NC(=O)[C@@H](CC(C)C)NC(=O)[C@H](CCCNC(=N)N)NC(=O)[C@H](CCCCN)NC(=O)[C@H](Cc1c[nH]c2ccccc12)NC(=O)CN)C(C)C)C(=O)N[C@H](C(N)=O)C(C)C` is recorded as “stable” (substrate, SDS-PAGE; 24 h, pH 7.4, 37 °C).
The half-life of `CCCC[C@@H]1NC(=O)[C@H](C(C)C)NC(=O)[C@H](Cc2c[nH]cn2)NC(=O)[C@H]([C@@H](C)CC)NC(=O)[C@H](CC(=O)O)NC(=O)[C@@H](NC(=O)[C@H](CC(N)=O)NC(=O)[C@@H]2CCCN2C(=O)[C@H](CCC(=O)O)NC(=O)[C@@H](N)C(C)C)CSSC[C@@H](C(=O)N[C@@H](Cc2ccccc2)C(=O)N[C@@H](CCC(=O)O)C(=O)N[C@@H](CCCNC(=N)N)C(=O)N[C@@H](CC(C)C)C(N)=O)NC(=O)[C@H](CCC(=O)O)NC(=O)[C@H](Cc2c[nH]c3ccccc23)NC(=O)[C@H](CCC(=O)O)NC(=O)[C@H](Cc2c[nH]c3ccccc23)NC1=O` is reported as 0.0267 h (proteolytic stability; TBS; 50 µM, pH 7.5, 5% DMSO, added: proteinase K 10 µg/mL).
For `CC(=O)N[C@H]1[C@@H](O[C@H](C)[C@H](NC(=O)[C@H](CC(=O)O)NC(=O)[C@@H]2CCCN2C(=O)[C@H](C)NC(=O)C[C@H](CO)NC(=O)[C@@H](NC(=O)[C@@H](NC(=O)CCNC(=O)[C@H](Cc2c[nH]cn2)NC(=O)[C@H](C)NC(=O)[C@@H](N)CS)C(C)C)[C@@H](C)O)C(=O)N[C@@H](CCCNC(=N)N)C(=O)N2CCC[C@H]2C(=O)N[C@@H](C)C(=O)N2CCC[C@H]2CC(=O)NCC(=O)N[C@@H](CO)C(=O)N[C@H](C(=O)N[C@@H](C)CC(=O)N2CCC[C@H]2C(=O)N2CCC[C@H]2C(N)=O)[C@@H](C)O)O[C@H](CO)[C@H](O)[C@@H]1O`, the half-life was 1.97 h (UPLC; DPBS; 200 µM, added: proteinase K 5 µg/mL).
`CC[C@H](C)[C@H](NC(=O)CNC(=O)[C@@H](NC(=O)[C@H](Cc1ccccc1)NC(=O)[C@H](Cc1ccc(O)cc1)NC(=O)[C@@H]1CCC(=O)NCC(=O)NCC(=O)N[C@@H](C)C(=O)NCC(=O)N[C@@H](Cc2cnc[nH]2)C(=O)N[C@@H](C(C)C)C(=O)N2CCC[C@H]2C(=O)N1)C(C)C)C(=O)NCC(=O)N[C@H](C(=O)N1CCC[C@H]1C(=O)N[C@H](C(=O)N[C@@H](CO)C(=O)N[C@@H](Cc1ccccc1)C(=O)N[C@@H](Cc1ccc(O)cc1)C(=O)NCC(=O)O)[C@@H](C)CC)[C@@H](C)O` gave a remaining activity of 50% (concentration not given, 10 min, 60 °C, added: proteinase K up to 4 U/mL).
`CC[C@H](C)[C@H](NC(=O)[C@H](Cc1c[nH]cn1)NC(=O)[C@H](CC(N)=O)NC(=O)[C@H](Cc1ccccc1)NC(=O)[C@H](Cc1ccc(O)cc1)NC(=O)[C@H](Cc1ccc(O)cc1)NC(=O)[C@@H](NC(=O)[C@H](CCCNC(=N)N)NC(=O)CNC(=O)[C@H](CO)NC(=O)[C@H](CO)NC(=O)[C@H](CCCNC(=N)N)NC(=O)[C@H](CO)NC(=O)[C@H](CCSC)NC(=O)[C@H](CCCNC(=N)N)NC(=O)[C@H](CCCCN)NC(=O)[C@H](CCC(=O)O)NC(=O)[C@H](Cc1c[nH]c2ccccc12)NC(=O)CNC(=O)[C@@H]1CCCN1C(=O)[C@@H]1CCCN1C(=O)[C@H](CC(C)C)NC(=O)[C@@H](N)CCCCN)C(C)C)C(=O)N[C@@H](CCn1cc(COCCOCCOCCOC)nn1)C(=O)N[C@@H](CC(N)=O)C(=O)N[C@@H](C)C(=O)N[C@@H](CO)C(=O)N[C@@H](CCC(N)=O)C(=O)N[C@@H](Cc1ccccc1)C(=O)N[C@@H](CCC(=O)O)C(=O)N[C@@H](CCCNC(=N)N)C(=O)N1CCC[C@H]1C(=O)N[C@@H](CO)C(=O)NCC(=O)O`: “ln rate constant ratio” -0.3 ± 0.3 (proteolysis, substrate, HPLC; room temperature; reference: PEGylated over non-PEGylated variant, negative = more stable).
For `CC(C)C[C@H](NC(=O)[C@H](C)NC(=O)[C@H](CC(N)=O)NC(=O)[C@H](CCC(=O)O)NC(=O)[C@@H](N)CCCCN)C(=O)N[C@@H](CC(C)C)C(=O)N[C@@H](CCCNC(=N)N)C(=O)N[C@@H](Cc1ccc(O)cc1)C(=O)N[C@@H](CC(C)C)C(=O)N[C@@H](CC(C)C)C(=O)N[C@@H](CC(=O)O)C(=O)N[C@@H](CCCCN)C(=O)N[C@@H](CC(=O)O)C(N)=O`, the half-life was 3 h (substrate, HPLC; 0.5 mM, pH 7.4, 37 °C, added: proteinase K 0.0005%).

For quick reference, copied from above:
`CC[C@H](C)[C@H](NC(=O)[C@H](Cc1c[nH]cn1)NC(=O)[C@H](CC(N)=O)NC(=O)[C@H](Cc1ccccc1)NC(=O)[C@H](Cc1ccc(O)cc1)NC(=O)[C@H](Cc1ccc(O)cc1)NC(=O)[C@@H](NC(=O)[C@H](CCCNC(=N)N)NC(=O)CNC(=O)[C@H](CO)NC(=O)[C@H](CO)NC(=O)[C@H](CCCNC(=N)N)NC(=O)[C@H](CCn1cc(COCCOCCOCCOC)nn1)NC(=O)[C@H](CCSC)NC(=O)[C@H](CCCNC(=N)N)NC(=O)[C@H](CCCCN)NC(=O)[C@H](CCC(=O)O)NC(=O)[C@H](Cc1c[nH]c2ccccc12)NC(=O)CNC(=O)[C@@H]1CCCN1C(=O)[C@@H]1CCCN1C(=O)[C@H](CC(C)C)NC(=O)[C@@H](N)CCCCN)C(C)C)C(=O)N[C@H](C(=O)N[C@@H](CC(N)=O)C(=O)N[C@@H](C)C(=O)N[C@@H](CO)C(=O)N[C@@H](CCC(N)=O)C(=O)N[C@@H](Cc1ccccc1)C(=O)N[C@@H](CCC(=O)O)C(=O)N[C@@H](CCCNC(=N)N)C(=O)N1CCC[C@H]1C(=O)N[C@@H](CO)C(=O)NCC(=O)O)[C@@H](C)O` — result for “ln rate constant ratio”: -0.7 ± 0.4 (proteolysis, substrate, HPLC; room temperature; reference: PEGylated over non-PEGylated variant, negative = more stable).
